Measured values from different studies.
Every numbered part comes from another study and shows a few of its results, in no order.
UniProt P22455, sequence (whole entry, looked up): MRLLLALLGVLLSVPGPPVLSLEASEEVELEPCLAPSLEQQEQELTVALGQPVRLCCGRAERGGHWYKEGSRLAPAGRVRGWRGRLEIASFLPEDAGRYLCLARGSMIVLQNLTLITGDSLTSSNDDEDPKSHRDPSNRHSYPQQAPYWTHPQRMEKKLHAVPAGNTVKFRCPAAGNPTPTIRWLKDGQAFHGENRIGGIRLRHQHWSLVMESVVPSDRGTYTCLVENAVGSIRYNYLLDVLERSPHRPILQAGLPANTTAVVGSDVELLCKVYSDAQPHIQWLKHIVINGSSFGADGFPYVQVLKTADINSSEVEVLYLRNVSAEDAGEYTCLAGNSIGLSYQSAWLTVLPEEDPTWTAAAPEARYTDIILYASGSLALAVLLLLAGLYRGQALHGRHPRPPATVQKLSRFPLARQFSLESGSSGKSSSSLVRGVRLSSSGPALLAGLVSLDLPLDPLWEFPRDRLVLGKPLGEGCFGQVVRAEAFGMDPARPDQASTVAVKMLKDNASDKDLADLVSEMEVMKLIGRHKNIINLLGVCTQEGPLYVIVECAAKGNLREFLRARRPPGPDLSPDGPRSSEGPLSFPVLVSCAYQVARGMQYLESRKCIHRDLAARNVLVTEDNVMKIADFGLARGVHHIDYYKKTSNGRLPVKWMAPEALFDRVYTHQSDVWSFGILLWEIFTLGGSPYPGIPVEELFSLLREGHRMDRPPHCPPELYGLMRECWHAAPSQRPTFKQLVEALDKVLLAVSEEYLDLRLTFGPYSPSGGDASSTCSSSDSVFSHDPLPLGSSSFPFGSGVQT
UniProt Q15375, sequence (whole entry, looked up): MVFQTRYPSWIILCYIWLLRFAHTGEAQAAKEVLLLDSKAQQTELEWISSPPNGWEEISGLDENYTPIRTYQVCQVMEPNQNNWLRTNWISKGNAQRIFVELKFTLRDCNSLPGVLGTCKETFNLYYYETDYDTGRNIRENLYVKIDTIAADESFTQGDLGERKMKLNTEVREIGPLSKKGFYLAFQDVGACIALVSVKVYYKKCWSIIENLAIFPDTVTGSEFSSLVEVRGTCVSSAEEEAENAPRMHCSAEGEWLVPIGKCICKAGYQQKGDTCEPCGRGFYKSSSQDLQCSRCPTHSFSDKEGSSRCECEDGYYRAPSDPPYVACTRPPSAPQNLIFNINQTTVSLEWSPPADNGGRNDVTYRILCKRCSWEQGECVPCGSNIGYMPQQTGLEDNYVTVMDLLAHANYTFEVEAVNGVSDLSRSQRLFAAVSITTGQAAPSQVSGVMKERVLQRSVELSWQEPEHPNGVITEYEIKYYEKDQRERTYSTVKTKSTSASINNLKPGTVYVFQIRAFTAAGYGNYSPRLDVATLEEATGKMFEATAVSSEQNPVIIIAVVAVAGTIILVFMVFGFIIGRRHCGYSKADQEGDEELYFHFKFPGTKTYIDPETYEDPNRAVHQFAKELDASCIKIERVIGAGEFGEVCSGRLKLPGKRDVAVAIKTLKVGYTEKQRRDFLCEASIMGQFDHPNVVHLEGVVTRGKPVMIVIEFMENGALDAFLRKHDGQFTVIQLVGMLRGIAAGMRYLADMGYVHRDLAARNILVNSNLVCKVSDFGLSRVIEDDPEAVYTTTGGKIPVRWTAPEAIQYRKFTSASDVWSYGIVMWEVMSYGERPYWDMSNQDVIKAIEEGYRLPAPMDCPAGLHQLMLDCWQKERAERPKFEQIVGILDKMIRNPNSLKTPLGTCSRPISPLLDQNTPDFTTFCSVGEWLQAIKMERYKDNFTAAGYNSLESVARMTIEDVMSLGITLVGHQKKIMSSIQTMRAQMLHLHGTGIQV
UniProt Q96NX5, sequence (whole entry, looked up): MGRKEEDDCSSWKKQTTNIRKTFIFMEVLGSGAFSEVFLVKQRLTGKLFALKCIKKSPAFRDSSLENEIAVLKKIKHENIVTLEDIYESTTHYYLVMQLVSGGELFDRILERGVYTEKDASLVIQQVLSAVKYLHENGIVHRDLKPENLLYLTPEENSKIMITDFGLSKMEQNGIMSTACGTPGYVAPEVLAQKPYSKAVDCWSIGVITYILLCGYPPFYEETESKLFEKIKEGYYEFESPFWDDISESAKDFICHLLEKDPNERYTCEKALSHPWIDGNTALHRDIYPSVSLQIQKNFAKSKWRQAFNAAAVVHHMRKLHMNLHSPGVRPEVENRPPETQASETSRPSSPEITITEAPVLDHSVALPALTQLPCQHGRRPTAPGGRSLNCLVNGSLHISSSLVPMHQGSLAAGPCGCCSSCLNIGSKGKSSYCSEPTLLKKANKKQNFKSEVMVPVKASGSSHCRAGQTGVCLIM
UniProt Q96BR1, sequence (whole entry, looked up): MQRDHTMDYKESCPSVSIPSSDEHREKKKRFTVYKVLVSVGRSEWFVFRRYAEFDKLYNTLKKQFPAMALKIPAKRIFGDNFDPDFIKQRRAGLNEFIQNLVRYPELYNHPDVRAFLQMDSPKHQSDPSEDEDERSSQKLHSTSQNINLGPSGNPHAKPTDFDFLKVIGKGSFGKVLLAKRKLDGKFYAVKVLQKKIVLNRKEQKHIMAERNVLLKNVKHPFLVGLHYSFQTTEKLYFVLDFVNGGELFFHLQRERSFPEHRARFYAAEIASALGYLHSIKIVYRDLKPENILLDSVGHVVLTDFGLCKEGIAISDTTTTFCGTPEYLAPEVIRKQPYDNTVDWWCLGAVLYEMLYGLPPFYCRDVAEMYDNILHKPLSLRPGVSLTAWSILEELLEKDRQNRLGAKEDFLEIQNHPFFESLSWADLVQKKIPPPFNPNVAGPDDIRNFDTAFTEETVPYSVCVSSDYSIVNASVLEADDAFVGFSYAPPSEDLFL
UniProt P29323, sequence (whole entry, looked up): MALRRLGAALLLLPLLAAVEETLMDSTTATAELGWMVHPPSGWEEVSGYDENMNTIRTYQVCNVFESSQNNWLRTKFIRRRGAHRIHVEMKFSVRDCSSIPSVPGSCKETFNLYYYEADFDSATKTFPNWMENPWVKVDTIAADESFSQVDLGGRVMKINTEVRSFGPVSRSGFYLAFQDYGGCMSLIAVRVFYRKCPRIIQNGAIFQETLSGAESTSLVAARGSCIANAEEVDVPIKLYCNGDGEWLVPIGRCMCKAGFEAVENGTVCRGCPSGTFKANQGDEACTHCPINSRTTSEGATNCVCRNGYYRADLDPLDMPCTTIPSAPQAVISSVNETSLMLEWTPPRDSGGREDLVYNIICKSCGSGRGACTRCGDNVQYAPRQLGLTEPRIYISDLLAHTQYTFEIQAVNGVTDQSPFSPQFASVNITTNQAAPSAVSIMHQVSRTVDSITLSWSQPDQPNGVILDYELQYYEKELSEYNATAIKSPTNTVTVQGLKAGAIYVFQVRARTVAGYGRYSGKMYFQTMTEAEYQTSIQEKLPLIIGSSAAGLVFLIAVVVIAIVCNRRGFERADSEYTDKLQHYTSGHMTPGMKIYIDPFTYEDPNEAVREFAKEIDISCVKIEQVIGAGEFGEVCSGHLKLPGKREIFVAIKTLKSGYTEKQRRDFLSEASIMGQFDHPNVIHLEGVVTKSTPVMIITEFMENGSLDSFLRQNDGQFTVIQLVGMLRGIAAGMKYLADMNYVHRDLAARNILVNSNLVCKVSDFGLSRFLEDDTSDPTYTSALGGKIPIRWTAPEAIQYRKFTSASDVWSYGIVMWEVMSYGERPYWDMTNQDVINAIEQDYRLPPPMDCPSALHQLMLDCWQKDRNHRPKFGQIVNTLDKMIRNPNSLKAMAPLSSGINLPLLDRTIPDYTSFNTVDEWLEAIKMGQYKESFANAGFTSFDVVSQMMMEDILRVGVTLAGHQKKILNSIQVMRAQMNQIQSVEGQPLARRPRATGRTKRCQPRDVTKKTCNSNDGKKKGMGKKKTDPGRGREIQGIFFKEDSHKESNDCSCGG

Set 1
SMILES: C=CCc1ccc(O)c(-c2ccc(O)c(CC=C)c2)c1
ANO1 del476-501/F628A: Anoctamin-1 (ANO1, Homo sapiens, UniProt Q5XXA6, del476-501/F628A)
UniProt Q5XXA6, sequence (whole entry, unmodified, looked up): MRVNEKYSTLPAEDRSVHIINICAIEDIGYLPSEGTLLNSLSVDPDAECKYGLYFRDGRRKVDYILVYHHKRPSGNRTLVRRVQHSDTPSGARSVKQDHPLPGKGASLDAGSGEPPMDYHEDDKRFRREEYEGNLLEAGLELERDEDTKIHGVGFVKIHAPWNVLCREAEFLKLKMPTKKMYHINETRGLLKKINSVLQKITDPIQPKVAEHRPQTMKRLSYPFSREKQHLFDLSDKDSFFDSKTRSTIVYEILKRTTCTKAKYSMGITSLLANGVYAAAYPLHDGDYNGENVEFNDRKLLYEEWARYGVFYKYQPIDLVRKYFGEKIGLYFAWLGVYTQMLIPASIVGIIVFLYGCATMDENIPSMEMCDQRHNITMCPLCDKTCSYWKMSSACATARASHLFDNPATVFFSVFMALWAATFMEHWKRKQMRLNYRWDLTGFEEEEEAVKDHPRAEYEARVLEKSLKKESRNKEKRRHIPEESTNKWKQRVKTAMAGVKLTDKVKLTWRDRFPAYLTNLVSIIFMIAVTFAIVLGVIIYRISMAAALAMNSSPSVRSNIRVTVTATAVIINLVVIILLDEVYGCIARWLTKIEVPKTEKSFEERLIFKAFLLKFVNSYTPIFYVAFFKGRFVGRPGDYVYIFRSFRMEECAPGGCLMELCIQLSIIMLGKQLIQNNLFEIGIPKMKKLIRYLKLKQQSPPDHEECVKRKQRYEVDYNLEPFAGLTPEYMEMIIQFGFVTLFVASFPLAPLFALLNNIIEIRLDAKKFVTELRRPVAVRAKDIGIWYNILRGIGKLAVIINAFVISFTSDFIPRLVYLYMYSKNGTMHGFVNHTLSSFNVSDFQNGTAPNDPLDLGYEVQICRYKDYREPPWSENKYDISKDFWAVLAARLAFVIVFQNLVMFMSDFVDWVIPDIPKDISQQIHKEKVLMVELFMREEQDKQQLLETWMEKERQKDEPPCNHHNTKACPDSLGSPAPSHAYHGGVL
ANO1 del476-501/E649A: Anoctamin-1 (ANO1, Homo sapiens, UniProt Q5XXA6, del476-501/E649A)
ANO1 del476-501: Anoctamin-1 (ANO1, Homo sapiens, UniProt Q5XXA6, del476-501)
ANO1: Anoctamin-1 (ANO1, Homo sapiens, UniProt Q5XXA6)
| target | test | conditions | how to read | normalized current |
| --- | --- | --- | --- | --- |
| ANO1 del476-501/F628A | chloride current, whole-cell voltage clamp | 3 µM, I-V at 0 mV, added: 4 µM Ca2+ |  | -0.0053 |
| ANO1 del476-501/E649A | ion current, inside-out patch clamp | 10 µM, E623A mutant at -20 mV |  | -0.144 |
| ANO1 del476-501/F628A | chloride current, inhibitor, whole-cell voltage clamp | 3 µM, F602A mutant |  | 0.93 |
| ANO1 del476-501/F628A | chloride current, whole-cell voltage clamp | 100 µM, concentration-response at 60 mV, added: 4 µM Ca2+ |  | 0.0857 |
| ANO1 del476-501 | chloride current, whole-cell voltage clamp | 30 µM, wild type, concentration-response at 20 mV, added: 4 µM Ca2+ |  | 0.0131 |
| Anoctamin-1 (ANO1, Homo sapiens, UniProt Q5XXA6, del476-501/F807A) | chloride current, inhibitor, whole-cell voltage clamp | 3 µM | relative to: untreated | 1 |
| ANO1 | chloride current, inside-out patch clamp | 10 µM, membrane voltage 80 mV |  | 0.642 |
| ANO1 | chloride current, inside-out patch clamp | 10 µM, membrane voltage -60 mV |  | -0.436 |
| ANO1 del476-501/E649A | ion current, inside-out patch clamp | 10 µM, E623A mutant at 60 mV |  | 0.464 |
| ANO1 del476-501/F628A | chloride current, whole-cell voltage clamp | 10 µM, I-V at -80 mV, added: 4 µM Ca2+ |  | -0.516 |
| ANO1 del476-501 | chloride current, whole-cell voltage clamp | 10 µM, wild type, I-V at -60 mV, added: 4 µM Ca2+ |  | -0.176 |
| Anoctamin-1 (ANO1, Homo sapiens, UniProt Q5XXA6, del476-501/E659A/K629A) | chloride current, inside-out patch clamp | 10 µM, membrane voltage -60 mV |  | -0.578 |

Set 2
Compound: COc1cccc(-c2cc(=O)c3ccccc3o2)c1N
Observed: enzyme activity
Mode: inhibitor
Concentration: 0.5 µM
Relative to: control
| target | remaining activity [%] |
| --- | --- |
| CSK (Homo sapiens, UniProt P41240) | 83.7 |
| PRKCE (Homo sapiens, UniProt Q02156) | 82.4 |
| CSF1R (Homo sapiens, UniProt P07333) | 101 |
| FGFR4 (Homo sapiens, UniProt P22455) | 104 |
| SGK1 (Homo sapiens, UniProt O00141) | 102 |
| MYLK (Homo sapiens, UniProt Q15746) | 98.9 |
| EPHB2 (Homo sapiens, UniProt P29323) | 88 |
| PAK2 (Homo sapiens, UniProt Q13177) | 104 |
| BMX (Homo sapiens, UniProt P51813) | 103 |
| RPS6KA1 (Homo sapiens, UniProt Q15418) | 92.7 |
| PIM2 (Homo sapiens, UniProt Q9P1W9) | 99.3 |
| SRPK3 (Homo sapiens, UniProt Q9UPE1) | 91 |
| GRK2 (Homo sapiens, UniProt P25098) | 99.6 |
| GRK6 (Homo sapiens, UniProt P43250) | 90.7 |
| RPS6KB1 (Homo sapiens, UniProt P23443) | 98 |
| Aurora kinase C (AURKC, Homo sapiens, UniProt Q9UQB9) | 95.3 |
| PRKCG (Homo sapiens, UniProt P05129) | 100 |
| GSK3A (Homo sapiens, UniProt P49840) | 97 |
| NUAK1 (Homo sapiens, UniProt O60285) | 98.1 |
| EPHA7 (Homo sapiens, UniProt Q15375) | 98.6 |
| FLT3 (Homo sapiens, UniProt P36888) | 96.3 |

Set 3
Structure (SMILES): CCCOc1ccc([C@@H]2[C@@H](C(=O)O)[C@H](c3ccc4c(c3)OCO4)CN2CC(=O)Nc2c(CC)cccc2CC)cc1
Technique: competition with immobilised ligand
Concentration: 1 µM
| target | test | remaining binding |
| --- | --- | --- |
| PKN1 (Homo sapiens, UniProt Q16512) | cell-free assay | 100% |
| PIK3CB (Homo sapiens, UniProt P42338) | cell-free assay | 92% |
| MAP2K2 (Homo sapiens, UniProt P36507) | cell-free assay | 89% |
| PIK3CD (Homo sapiens, UniProt O00329) | cell-free assay | 90% |
| EPHA7 (Homo sapiens, UniProt Q15375) | cell-free assay | 92% |
| TNK2 (Homo sapiens, UniProt Q07912) | cell-free assay | 90% |
| Tyrosine-protein kinase JAK1, JH2 (JAK1, Homo sapiens, UniProt P23458) | cell-free assay | 88% |
| PIK3C3 (Homo sapiens, UniProt Q8NEB9) | cell-free assay | 88% |
| CDK14 (Homo sapiens, UniProt O94921) | cell-free assay | 92% |
| TESK1 (Homo sapiens, UniProt Q15569) | cell-free assay | 100% |
| PRKD2 (Homo sapiens, UniProt Q9BZL6) | cell-free assay | 100% |
| Myosin-IIIa (MYO3A, Homo sapiens, UniProt Q8NEV4) | binding | 100% |
| PRKG1 (Homo sapiens, UniProt Q13976) | cell-free assay | 97% |
| Tyrosine-protein kinase ABL1, non-phosphorylated (ABL1, Homo sapiens, UniProt P00519, F317L) | cell-free assay | 82% |
| STK16 (Homo sapiens, UniProt O75716) | cell-free assay | 87% |
| FGFR4 (Homo sapiens, UniProt P22455) | cell-free assay | 93% |
| SGK3 (Homo sapiens, UniProt Q96BR1) | cell-free assay | 69% |
| ROCK2 (Homo sapiens, UniProt O75116) | cell-free assay | 84% |
| BRSK2 (Homo sapiens, UniProt Q8IWQ3) | cell-free assay | 100% |
| KIT (Homo sapiens, UniProt P10721, D816H) | cell-free assay | 94% |
| CAMK1G (Homo sapiens, UniProt Q96NX5) | cell-free assay | 89% |
| MST1R (Homo sapiens, UniProt Q04912) | cell-free assay | 91% |

Set 4
SMILES: O=C(Nc1cnn(-c2csc(C(=O)NC3COC3)c2)c1)Nc1c(F)cccc1Cl
Concentration: 5 µM
| target | test | how to read | remaining activity [%] |
| --- | --- | --- | --- |
| MAP3K12 (Homo sapiens, UniProt Q12852) | enzyme activity | relative to: untreated control | 81.4 |
| KSR1 (Homo sapiens, UniProt Q8IVT5) | enzyme activity | relative to: untreated control | 100 |
| Cyclin-dependent kinase 16, with cyclin Y (CDK16, Homo sapiens, UniProt Q00536) | enzyme activity | relative to: untreated control | 100 |
| PKN3 (Homo sapiens, UniProt Q6P5Z2) | enzyme activity | relative to: untreated control | 76.2 |
| TAOK1 (Homo sapiens, UniProt Q7L7X3) | enzyme activity | relative to: untreated control | 89.6 |
| Cell division cycle 7-related protein kinase, with DBF4 (CDC7, Homo sapiens, UniProt O00311) | kinase activity, kinase panel profiling |  | 84.3 |
| PRKCD (Homo sapiens, UniProt Q05655) | enzyme activity | relative to: untreated control | 100 |
| FGFR4 (Homo sapiens, UniProt P22455) | enzyme activity | relative to: untreated control | 98.5 |
| CAMK1G (Homo sapiens, UniProt Q96NX5) | enzyme activity | relative to: untreated control | 91.7 |
| STK38L (Homo sapiens, UniProt Q9Y2H1) | enzyme activity | relative to: untreated control | 93 |
| PIM3 (Homo sapiens, UniProt Q86V86) | enzyme activity | relative to: untreated control | 73.1 |
| KSR2 (Homo sapiens, UniProt Q6VAB6) | enzyme activity | relative to: untreated control | 91.9 |
| TSSK2 (Homo sapiens, UniProt Q96PF2) | enzyme activity | relative to: untreated control | 95.1 |
| MAPK15 (Homo sapiens, UniProt Q8TD08) | enzyme activity | relative to: untreated control | 105 |
| MKNK2 (Homo sapiens, UniProt Q9HBH9) | enzyme activity | relative to: untreated control | 90.7 |
| PAK4 (Homo sapiens, UniProt O96013) | enzyme activity | relative to: untreated control | 105 |

Excerpt of the above (set 2):
| target | remaining activity [%] |
| --- | --- |
| EPHB2 (Homo sapiens, UniProt P29323) | 88 |
| PAK2 (Homo sapiens, UniProt Q13177) | 104 |
| BMX (Homo sapiens, UniProt P51813) | 103 |
| RPS6KA1 (Homo sapiens, UniProt Q15418) | 92.7 |
| PIM2 (Homo sapiens, UniProt Q9P1W9) | 99.3 |
| SRPK3 (Homo sapiens, UniProt Q9UPE1) | 91 |
| GRK2 (Homo sapiens, UniProt P25098) | 99.6 |
| GRK6 (Homo sapiens, UniProt P43250) | 90.7 |
